Experimental data of several laboratories.
Numbered parts are unrelated; each lists some results of a single study. Several values in a cell are separate wells, animals, samples, runs or records.
Chain of UniProt O75676 (whole entry, looked up): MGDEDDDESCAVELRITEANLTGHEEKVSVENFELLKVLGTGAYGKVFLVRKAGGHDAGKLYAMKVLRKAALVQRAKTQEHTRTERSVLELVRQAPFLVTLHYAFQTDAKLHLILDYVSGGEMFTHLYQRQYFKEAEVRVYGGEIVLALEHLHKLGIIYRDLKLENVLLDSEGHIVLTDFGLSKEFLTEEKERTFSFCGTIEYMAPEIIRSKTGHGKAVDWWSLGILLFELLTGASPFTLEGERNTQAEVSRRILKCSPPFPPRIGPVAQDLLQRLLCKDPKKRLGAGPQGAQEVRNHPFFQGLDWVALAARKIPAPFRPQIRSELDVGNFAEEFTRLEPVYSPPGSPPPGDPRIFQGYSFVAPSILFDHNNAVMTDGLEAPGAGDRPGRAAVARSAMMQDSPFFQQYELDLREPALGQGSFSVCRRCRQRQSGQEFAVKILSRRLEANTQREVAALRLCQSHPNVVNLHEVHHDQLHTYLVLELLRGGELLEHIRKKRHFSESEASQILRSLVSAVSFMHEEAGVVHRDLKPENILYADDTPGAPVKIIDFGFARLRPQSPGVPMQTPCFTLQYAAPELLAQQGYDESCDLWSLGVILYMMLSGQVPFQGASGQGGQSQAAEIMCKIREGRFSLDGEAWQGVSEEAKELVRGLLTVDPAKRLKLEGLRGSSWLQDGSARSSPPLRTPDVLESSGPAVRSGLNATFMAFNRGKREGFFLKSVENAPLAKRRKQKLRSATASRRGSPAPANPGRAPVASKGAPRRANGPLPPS
Chain of UniProt O00506 (whole entry, looked up): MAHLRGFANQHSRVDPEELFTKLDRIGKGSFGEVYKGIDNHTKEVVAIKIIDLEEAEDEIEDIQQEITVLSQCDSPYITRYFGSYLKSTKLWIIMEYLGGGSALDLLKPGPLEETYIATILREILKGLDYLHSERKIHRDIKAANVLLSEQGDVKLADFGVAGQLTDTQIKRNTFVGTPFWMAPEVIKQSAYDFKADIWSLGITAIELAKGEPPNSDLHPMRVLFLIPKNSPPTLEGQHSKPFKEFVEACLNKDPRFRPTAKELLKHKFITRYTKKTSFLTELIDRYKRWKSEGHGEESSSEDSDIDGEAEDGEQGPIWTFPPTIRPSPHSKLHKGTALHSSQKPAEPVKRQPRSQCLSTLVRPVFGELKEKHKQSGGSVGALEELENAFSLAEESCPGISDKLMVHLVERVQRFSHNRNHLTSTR
Chain of UniProt Q8N5S9 (whole entry, looked up): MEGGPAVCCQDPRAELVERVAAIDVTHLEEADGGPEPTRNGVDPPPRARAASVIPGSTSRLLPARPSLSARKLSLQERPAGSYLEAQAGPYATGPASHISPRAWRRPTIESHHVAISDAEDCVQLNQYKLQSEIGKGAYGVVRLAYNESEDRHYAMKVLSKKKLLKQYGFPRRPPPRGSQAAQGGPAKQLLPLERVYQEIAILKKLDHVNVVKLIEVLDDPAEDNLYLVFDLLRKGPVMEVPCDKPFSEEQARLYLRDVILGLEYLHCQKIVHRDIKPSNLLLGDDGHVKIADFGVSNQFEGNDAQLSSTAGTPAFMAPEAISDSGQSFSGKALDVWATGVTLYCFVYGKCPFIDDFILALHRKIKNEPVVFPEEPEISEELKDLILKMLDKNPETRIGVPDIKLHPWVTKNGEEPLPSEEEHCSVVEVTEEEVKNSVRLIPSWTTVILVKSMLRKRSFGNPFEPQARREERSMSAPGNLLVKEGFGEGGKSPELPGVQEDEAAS
Chain of UniProt Q96PY6 (whole entry, looked up): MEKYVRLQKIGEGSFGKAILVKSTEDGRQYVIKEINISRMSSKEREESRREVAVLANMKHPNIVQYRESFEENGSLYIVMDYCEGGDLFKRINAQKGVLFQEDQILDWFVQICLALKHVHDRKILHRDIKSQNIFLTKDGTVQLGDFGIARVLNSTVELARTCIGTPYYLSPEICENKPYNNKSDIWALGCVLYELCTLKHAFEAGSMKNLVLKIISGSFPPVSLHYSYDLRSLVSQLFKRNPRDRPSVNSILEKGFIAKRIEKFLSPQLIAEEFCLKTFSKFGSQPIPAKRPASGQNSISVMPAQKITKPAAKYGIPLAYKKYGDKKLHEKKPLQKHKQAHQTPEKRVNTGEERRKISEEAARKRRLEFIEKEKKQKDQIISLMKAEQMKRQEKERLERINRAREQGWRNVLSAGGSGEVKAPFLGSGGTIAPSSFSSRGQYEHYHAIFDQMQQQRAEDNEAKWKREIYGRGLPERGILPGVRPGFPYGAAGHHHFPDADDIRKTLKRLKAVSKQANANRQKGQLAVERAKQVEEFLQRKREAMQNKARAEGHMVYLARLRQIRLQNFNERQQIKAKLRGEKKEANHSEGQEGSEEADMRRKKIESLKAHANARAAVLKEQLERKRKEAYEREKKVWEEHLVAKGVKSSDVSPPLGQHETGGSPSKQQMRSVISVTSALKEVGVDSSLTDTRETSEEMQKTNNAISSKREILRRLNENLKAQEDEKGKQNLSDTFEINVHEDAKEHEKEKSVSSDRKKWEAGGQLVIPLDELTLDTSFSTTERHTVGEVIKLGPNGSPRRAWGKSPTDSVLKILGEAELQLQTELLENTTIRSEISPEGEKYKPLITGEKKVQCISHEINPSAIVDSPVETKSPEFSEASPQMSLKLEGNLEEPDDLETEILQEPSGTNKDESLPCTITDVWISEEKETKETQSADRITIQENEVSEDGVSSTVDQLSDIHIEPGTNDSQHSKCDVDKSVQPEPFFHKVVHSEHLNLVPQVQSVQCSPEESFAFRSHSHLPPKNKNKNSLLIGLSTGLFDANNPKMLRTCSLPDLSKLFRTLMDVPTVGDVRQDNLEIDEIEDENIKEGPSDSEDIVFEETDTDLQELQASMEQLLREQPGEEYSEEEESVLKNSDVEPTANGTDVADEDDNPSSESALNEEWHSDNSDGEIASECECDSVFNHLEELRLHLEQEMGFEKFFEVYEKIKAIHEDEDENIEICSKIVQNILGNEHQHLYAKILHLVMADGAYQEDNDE
Chain of UniProt P46734 (whole entry, looked up): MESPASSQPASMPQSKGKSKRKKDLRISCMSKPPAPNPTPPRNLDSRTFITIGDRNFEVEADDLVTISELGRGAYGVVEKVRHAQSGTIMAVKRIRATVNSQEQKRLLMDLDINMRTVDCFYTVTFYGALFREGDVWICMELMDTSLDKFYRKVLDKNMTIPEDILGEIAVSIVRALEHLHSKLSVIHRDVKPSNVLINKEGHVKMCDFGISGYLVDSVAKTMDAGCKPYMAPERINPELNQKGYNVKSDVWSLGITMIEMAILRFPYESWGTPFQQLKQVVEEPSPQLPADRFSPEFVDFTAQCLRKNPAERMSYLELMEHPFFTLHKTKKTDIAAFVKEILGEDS

Series 1 — organism: Sarcocystis neurona; observed: parasite growth; tested at: 10 µM; time: 96 h; notes: second screen; relative to: untreated
Compound	log2 fold change
CCCCC[C@H](O)/C=C/[C@H]1[C@H](O)CC(=O)[C@@H]1CCCCCCC(=O)O	0.59
Fc1ccc([C@@H]2CCNC[C@H]2COc2ccc3c(c2)OCO3)cc1	0.19
CC[C@H](C)C(=O)O[C@H]1C[C@@H](C)C=C2C=C[C@H](C)[C@H](CC[C@@H]3C[C@@H](O)CC(=O)O3)[C@H]21	0.48
CCCN(CCC)S(=O)(=O)c1ccc(C(=O)O)cc1	0.35

Series 2 — observed: enzyme activity; mode: inhibitor; tested at: 0.5 µM; relative to: control
Target: Serine/threonine-protein kinase MRCK beta (CDC42BPB, Homo sapiens, UniProt Q9Y5S2)
Chain of UniProt Q9Y5S2 (whole entry, looked up): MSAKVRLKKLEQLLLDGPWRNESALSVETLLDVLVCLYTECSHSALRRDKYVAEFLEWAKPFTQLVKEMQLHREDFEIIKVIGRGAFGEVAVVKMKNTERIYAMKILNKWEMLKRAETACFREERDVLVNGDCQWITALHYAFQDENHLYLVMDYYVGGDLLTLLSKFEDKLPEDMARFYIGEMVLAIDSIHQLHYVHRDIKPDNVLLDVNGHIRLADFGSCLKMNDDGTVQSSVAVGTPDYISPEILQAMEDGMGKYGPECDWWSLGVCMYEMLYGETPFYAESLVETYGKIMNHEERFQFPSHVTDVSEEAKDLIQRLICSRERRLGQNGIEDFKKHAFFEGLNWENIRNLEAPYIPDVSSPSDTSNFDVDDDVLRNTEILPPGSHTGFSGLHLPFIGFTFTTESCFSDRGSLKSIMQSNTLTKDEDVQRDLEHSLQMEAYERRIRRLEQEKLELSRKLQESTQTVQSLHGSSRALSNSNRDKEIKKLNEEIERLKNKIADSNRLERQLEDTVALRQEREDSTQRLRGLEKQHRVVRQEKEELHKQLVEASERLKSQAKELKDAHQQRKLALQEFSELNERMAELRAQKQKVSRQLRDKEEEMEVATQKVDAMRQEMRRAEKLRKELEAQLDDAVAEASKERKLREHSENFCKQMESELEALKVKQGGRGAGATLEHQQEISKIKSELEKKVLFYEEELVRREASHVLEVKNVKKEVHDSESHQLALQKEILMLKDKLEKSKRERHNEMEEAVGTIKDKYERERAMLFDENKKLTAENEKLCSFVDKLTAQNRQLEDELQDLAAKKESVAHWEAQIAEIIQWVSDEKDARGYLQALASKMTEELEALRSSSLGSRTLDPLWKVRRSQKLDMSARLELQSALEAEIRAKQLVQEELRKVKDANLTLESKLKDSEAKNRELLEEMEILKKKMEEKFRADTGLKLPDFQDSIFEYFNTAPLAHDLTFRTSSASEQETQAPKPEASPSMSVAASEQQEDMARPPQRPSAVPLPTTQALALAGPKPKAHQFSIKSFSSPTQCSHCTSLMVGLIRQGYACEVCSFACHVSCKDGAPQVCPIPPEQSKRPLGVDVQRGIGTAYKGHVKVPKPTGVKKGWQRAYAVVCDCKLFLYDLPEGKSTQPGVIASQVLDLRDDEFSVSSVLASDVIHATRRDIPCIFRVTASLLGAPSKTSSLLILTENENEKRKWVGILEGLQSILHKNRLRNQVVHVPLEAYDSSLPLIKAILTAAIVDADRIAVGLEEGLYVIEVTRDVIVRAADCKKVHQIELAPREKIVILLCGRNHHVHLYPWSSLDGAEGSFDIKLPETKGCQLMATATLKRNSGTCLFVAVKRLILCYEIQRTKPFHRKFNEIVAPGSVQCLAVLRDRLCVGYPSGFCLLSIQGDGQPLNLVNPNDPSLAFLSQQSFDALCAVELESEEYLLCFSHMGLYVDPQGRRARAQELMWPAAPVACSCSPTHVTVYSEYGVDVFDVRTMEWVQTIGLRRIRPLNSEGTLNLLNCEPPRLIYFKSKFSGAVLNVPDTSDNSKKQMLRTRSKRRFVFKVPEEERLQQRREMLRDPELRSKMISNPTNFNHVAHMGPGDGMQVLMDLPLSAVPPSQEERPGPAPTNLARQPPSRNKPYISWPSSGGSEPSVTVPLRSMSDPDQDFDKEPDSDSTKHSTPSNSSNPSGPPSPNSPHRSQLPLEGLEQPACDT
SMILES	remaining activity
Cc1ccc(NC(=O)c2ccc(CN3CCN(C)CC3)cc2)cc1Nc1nc(-c2cccnc2)cs1	98.1%
CCOC(=O)c1c(C)[nH]c(/C=C2\C(=O)Nc3ccccc32)c1C	110%
COc1cc2nccc(Oc3ccc(NC(=S)NC(=O)c4ccccc4C)cc3)c2cc1OC	90.5%
Cc1cccc(-c2[nH]c(C(C)(C)C)nc2-c2ccc3c(c2)OCO3)n1	102%
Oc1ccc(-c2nc(-c3ccncc3)c(-c3ccc(F)cc3)[nH]2)cc1	103%
CNC(=O)c1cc(Oc2ccc(NC(=O)Nc3ccc(Cl)c(C(F)(F)F)c3)cc2)ccn1	102%
O=C1NC(=O)C(c2cn(CCCn3ccnc3)c3ccccc23)=C1Nc1ccccc1	105%
Nc1ncnc2n[nH]c(Nc3ccc(F)cc3)c12	106%
Cc1nc(-c2ccccc2)c(-c2ccncc2)o1	101%
COc1cc2ncnc(Nc3ccc(Oc4ccccc4)cc3)c2cc1OC	106%
Cc1ccc(Nc2nccc(N(C)c3ccc4c(C)n(C)nc4c3)n2)cc1S(N)(=O)=O	99.9%
O=C(Nc1cccc(Nc2cc(Nc3cccc(C(F)(F)F)c3)ncn2)c1)C1CC1	97.4%
NCCNc1ncc(C(N)=O)c(Nc2cccc(C(F)(F)F)c2)n1	107%
CC(C)[C@H](CO)Nc1nc(Nc2cc(N)cc(Cl)c2)c2ncn(C(C)C)c2n1	98.4%
COc1ccc(CNC(=O)Nc2ncc([N+](=O)[O-])s2)cc1	93.5%
COc1ccc(C(=O)Nc2sc3c(c2C(N)=O)CCCC3)cc1OC	94.5%
C#Cc1cccc(Nc2ncnc3cc(OCCOC)c(OCCOC)cc23)c1	98.5%
OCC(O)CCON=C1C(c2c(O)[nH]c3ccccc23)=Nc2ccccc21 (stereo not drawn)	96.6%
O=C(O)c1ccc2c3c1cccc3c(=O)n1c3ccccc3nc21	109%
CN(C)c1ccc(C=C2C(=O)Nc3ccccc32)cc1	89.5%
Nc1[nH]nc2nc3ccccc3nc12	100%
Cn1c2ccccc2c2c3c(c4c5ccccc5n(CCC#N)c4c21)CNC3=O	92.1%
COc1ccc(OC)c2c(=S)c3ccccc3[nH]c12	106%
CO[C@H]1C[C@@H]2CC[C@@H](C)[C@@](O)(O2)C(=O)C(=O)N2CCCC[C@H]2C(=O)O[C@H]([C@H](C)C[C@@H]2CC[C@@H](O)[C@H](OC)C2)CC(=O)[C@H](C)/C=C(\C)[C@@H](O)[C@@H](OC)C(=O)[C@H](C)C[C@H](C)/C=C/C=C/C=C/1C	103%

Series 3 — host: human; matrix: microsomes or S9; tested at: 2 µM; time: 0.5 h
SMILES	remaining compound [%]
COC(=O)c1sccc1NC(=O)c1cn(C)c(=O)cc1OC	3.78
Cc1noc(C)c1Cc1nc(-c2c(Cl)nc3sccn23)no1	12.6
Cc1ccc(N(C(C)C(=O)N2CCN(C)CC2)S(C)(=O)=O)cc1C (stereo not drawn)	81.2
Cc1ccccc1CNc1ccccc1NC(=O)c1ccc(C(=O)c2cc[nH]c2)cc1	16.7

Series 4 — cell line: THP-1
Structure (SMILES): CCCCCCCCCCCCCCCCOP(=O)([O-])OCC[N+](C)(C)C
observed	tested at	notes	inhibition
host cell growth	0.1 µM		-0.53% and -0.95% and -0.24% and -0.19% and -2.94% and -1.44%
	10 µM	cytotoxicity	30%
host cell growth	0.04 µM		4.35% and 1.55% and -0.32% and -3.65% and -0.23% and 2.55%

Series 5 — cell line: HuT78; tested at: 2 µM; time: 48 h; relative to: untreated
SMILES	viability [%]
O=C(NOCC(O)CO)c1cc(Br)c(F)c(F)c1Nc1ccc(I)cc1F (stereo not drawn)	98.1
CCn1c2ccccc2c2cc(Nc3ccnc(NCCCN4CCOCC4)n3)ccc21	88.9
C=CC(=O)Nc1cccc(Nc2nc(Nc3ccc(NC4CN(CCF)C4)cc3OC)ncc2C(F)(F)F)c1	84.8

Series 6 — observed: cell-free assay; technique: competition with immobilised ligand; tested at: 1 µM
SMILES: O=C(O)[C@H]1[C@H](Cn2nnc3ccccc3c2=O)CC[C@@H]1C(=O)c1ccc(OCCC2CCOCC2)cc1
target	remaining binding [%]
Serine/threonine-protein kinase Nek1 (NEK1, Homo sapiens, UniProt Q96PY6)	82
Serine/threonine-protein kinase 25 (STK25, Homo sapiens, UniProt O00506)	90
Dual specificity mitogen-activated protein kinase kinase 3 (MAP2K3, Homo sapiens, UniProt P46734)	90
Calcium/calmodulin-dependent protein kinase kinase 1 (CAMKK1, Homo sapiens, UniProt Q8N5S9)	81
Ribosomal protein S6 kinase alpha-4, C-terminal kinase domain (RPS6KA4, Homo sapiens, UniProt O75676)	97

Series 7 — technique: phase 2a trial; host: idiopathic pulmonary fibrosis patients
Structure (SMILES): CC(C)n1cnc(-c2ccc(F)cc2)c1-c1ncc(C(=O)Nc2ccc(N3CCN(C)CC3)cc2)[nH]1
dose	notes	patients with soft tissue infection
60 mg once daily	grade 1	0%
60 mg once daily	grade 3	0%
30 mg once daily	grade 2	0%

Single results of other studies
Molecule	target or system	assay	system	conditions	how to read	quantity	result
GTF2F2 (Homo sapiens, UniProt P13984)	GTF2F1 (Homo sapiens, UniProt P35269)	cross-linking MS		hits only		interaction screen	cross-linked
c1ccc2c(-c3nn4c(-c5ccncc5)nnc4s3)c[nH]c2c1	healthy dermal fibroblasts	4-MUP hydrolysis		0.5 µM, together with: without ISRIB	relative to: DMSO without ISRIB	lysosomal acid lipase activity	164% and 167% and 172% and 170%
SPTBN1 (Homo sapiens, UniProt Q01082)	PCDHGA10 (Homo sapiens, UniProt Q9Y5H3)	cross-linking MS	cell fractions	together with: DHSO		cross-linked residues	E1266 to D132
MPHOSPH8 (Homo sapiens, UniProt Q99549)	TASOR (Homo sapiens, UniProt Q9UK61)	cross-linking MS		hits only		interaction screen	cross-linked
CCT4 (Homo sapiens, UniProt P50991)	CCT2 (Homo sapiens, UniProt P78371)	cross-linking MS		hits only		interaction screen	cross-linked
